Measured values pooled from the literature.
Parts stem from different laboratories: compare values within a part only.
UniProt P62344, sequence (whole entry, looked up): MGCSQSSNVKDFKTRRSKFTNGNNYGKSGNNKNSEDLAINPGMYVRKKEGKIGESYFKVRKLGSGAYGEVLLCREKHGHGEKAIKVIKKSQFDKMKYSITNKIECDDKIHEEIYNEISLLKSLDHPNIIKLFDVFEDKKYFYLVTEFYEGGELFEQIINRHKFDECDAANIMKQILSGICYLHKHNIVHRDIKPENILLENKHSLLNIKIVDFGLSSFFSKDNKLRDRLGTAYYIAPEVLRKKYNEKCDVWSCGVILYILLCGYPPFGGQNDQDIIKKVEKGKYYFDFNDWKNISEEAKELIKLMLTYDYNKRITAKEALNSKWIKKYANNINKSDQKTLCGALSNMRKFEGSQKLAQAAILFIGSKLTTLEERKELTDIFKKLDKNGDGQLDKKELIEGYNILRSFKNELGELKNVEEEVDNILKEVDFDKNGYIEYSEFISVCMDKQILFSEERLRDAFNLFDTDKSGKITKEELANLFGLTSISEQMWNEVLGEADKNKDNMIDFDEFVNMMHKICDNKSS
UniProt P34969, sequence (whole entry, looked up): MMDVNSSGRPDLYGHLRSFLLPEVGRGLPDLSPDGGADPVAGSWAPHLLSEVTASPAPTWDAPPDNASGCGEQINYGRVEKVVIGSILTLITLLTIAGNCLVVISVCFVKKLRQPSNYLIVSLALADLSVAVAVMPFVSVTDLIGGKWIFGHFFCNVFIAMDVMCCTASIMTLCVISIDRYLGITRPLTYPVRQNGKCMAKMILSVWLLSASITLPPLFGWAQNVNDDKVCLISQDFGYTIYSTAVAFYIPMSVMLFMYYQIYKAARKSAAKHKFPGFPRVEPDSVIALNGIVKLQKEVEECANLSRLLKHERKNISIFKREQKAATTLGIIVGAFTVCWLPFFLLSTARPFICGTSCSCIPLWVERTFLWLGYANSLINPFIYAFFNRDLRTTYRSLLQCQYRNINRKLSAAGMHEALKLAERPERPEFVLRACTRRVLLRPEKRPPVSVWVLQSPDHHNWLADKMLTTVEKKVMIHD

Series 1
Cell line: mouse MPNST tumor cells
Method: high-content immunofluorescence imaging
Item: nuclear SOX9
Concentration: 10 µM
Time: 12 h
Notes: mean of 2 replicates
Relative to: DMSO control
Reading: higher = more nuclear SOX9
Quantity: nuclear SOX9 intensity
CC[C@H]1CN2CC[C@H]1C[C@@H]2[C@@H](O)c1ccnc2ccc(OC)cc12: 114 % of DMSO
COc1ccc2c(c1)[C@]13CCCC[C@@H]1[C@H](C2)N(C)CC3: 117 % of DMSO
CCOC(=O)c1ncc2[nH]c3ccc(OCc4ccccc4)cc3c2c1COC: 121 % of DMSO

Series 2
Target: Beta-1 adrenergic receptor (ADRB1, Homo sapiens, UniProt P08588)
UniProt P08588, sequence (whole entry, looked up): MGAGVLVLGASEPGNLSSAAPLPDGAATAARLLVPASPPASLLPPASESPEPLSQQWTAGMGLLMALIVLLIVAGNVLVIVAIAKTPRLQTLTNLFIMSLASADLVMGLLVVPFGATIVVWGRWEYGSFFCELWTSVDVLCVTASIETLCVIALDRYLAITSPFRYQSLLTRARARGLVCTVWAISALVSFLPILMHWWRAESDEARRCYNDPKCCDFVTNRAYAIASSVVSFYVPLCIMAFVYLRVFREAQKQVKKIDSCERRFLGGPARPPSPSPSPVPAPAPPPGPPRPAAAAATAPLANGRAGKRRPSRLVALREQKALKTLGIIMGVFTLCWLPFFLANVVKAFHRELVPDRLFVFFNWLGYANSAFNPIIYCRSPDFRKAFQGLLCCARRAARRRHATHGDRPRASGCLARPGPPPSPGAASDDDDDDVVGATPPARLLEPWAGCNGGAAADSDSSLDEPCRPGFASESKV
Action: antagonist
Quantity: IC50
CC(C)(C)NCC(O)c1ccccc1F (stereo not shown): ≥ 100 µM
CC[C@H](C)C(NC(=O)[C@H](CCC(=O)O)NC(=O)[C@@H](NC(C)=O)C(C)C)C(=O)N[C@@H](CC(=O)O)C(=O)Nc1ccc2c(C)cc(=O)oc2c1 (stereo partly shown): ≥ 100 µM
C1=C(c2ccccc2)CCN(Cc2nc3ccccc3[nH]2)C1: ≥ 100 µM

Series 3
Organism: Sarcocystis neurona
Effect on: parasite growth
Concentration: 10 µM
Time: 96 h
Quantity: inhibition
CN1CCN(C(=O)O[C@H]2c3nccnc3C(=O)N2c2ccc(Cl)cn2)CC1: -16.7%
CN1C(=O)COc2c(C(=O)NC3CN4CCC3CC4)cc(Cl)cc21 (stereo not shown): -9.4%
NC1=NC(=O)C(c2ccccc2)O1 (stereo not shown): -13.3%

Mixed results
pknB: Serine/threonine-protein kinase PknB (pknB, Mycobacterium tuberculosis, UniProt P9WI81)
UniProt P9WI81, sequence (whole entry, looked up): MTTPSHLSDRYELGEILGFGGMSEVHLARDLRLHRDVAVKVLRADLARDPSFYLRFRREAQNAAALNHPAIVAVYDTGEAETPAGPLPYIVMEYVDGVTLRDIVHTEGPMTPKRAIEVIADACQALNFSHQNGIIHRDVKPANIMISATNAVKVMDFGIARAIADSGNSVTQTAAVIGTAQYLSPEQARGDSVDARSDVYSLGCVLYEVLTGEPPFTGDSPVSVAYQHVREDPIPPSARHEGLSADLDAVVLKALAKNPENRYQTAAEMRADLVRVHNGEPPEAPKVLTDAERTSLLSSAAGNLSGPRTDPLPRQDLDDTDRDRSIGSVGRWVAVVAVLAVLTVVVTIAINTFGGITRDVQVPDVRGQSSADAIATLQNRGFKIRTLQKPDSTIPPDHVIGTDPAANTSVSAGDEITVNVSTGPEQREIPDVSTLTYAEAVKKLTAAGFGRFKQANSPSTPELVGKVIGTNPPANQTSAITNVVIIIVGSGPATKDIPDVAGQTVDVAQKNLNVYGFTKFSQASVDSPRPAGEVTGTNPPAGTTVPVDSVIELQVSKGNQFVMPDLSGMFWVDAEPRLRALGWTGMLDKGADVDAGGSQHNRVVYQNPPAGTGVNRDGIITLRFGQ
N#CC1(c2ccccn2)CCN(Cc2cc(C(=O)O)c(=O)n3ccccc23)CC1 — Ki (HTR7 (Homo sapiens, UniProt P34969); binding, radioligand binding): > 10 µM
CC(=O)N1CCC(c2ccc(C(=O)NC(=N)N)cc2C(F)(F)F)CC1 — remaining binding (pknB; cell-free assay, competition with immobilised ligand; 1 µM): 100%
O=C(NS(=O)(=O)c1ccc(NCC2CCOCC2)c([N+](=O)[O-])c1)c1ccc(N2CCN(Cc3ccc(C(F)(F)F)cc3-c3ccc(Cl)cc3)CC2)cc1Oc1cnc2[nH]ccc2c1 — remaining binding (CDPK1 (Plasmodium falciparum, UniProt P62344); cell-free assay, competition with immobilised ligand; 1 µM): 82%
O=C(O)c1cc(-c2ccc(C3CCNCC3)cc2)c2ccc(-c3ccc(C(F)(F)F)cc3)cc2c1 — remaining binding (pknB; cell-free assay, competition with immobilised ligand; 1 µM): 100%

Excerpt of the above (series 2):
CC[C@H](C)C(NC(=O)[C@H](CCC(=O)O)NC(=O)[C@@H](NC(C)=O)C(C)C)C(=O)N[C@@H](CC(=O)O)C(=O)Nc1ccc2c(C)cc(=O)oc2c1 (stereo partly shown): ≥ 100 µM
C1=C(c2ccccc2)CCN(Cc2nc3ccccc3[nH]2)C1: ≥ 100 µM
